Experimental data pooled from the literature.
Every numbered part comes from another study and shows a few of its results, in no order. Positions count from the first letter of the parent shown.

Study 1
Target: UDP-N-acetylglucosamine--peptide N-acetylglucosaminyltransferase 110 kDa subunit (OGT, Homo sapiens, UniProt O15294)
Chain of UniProt O15294 (whole entry, looked up): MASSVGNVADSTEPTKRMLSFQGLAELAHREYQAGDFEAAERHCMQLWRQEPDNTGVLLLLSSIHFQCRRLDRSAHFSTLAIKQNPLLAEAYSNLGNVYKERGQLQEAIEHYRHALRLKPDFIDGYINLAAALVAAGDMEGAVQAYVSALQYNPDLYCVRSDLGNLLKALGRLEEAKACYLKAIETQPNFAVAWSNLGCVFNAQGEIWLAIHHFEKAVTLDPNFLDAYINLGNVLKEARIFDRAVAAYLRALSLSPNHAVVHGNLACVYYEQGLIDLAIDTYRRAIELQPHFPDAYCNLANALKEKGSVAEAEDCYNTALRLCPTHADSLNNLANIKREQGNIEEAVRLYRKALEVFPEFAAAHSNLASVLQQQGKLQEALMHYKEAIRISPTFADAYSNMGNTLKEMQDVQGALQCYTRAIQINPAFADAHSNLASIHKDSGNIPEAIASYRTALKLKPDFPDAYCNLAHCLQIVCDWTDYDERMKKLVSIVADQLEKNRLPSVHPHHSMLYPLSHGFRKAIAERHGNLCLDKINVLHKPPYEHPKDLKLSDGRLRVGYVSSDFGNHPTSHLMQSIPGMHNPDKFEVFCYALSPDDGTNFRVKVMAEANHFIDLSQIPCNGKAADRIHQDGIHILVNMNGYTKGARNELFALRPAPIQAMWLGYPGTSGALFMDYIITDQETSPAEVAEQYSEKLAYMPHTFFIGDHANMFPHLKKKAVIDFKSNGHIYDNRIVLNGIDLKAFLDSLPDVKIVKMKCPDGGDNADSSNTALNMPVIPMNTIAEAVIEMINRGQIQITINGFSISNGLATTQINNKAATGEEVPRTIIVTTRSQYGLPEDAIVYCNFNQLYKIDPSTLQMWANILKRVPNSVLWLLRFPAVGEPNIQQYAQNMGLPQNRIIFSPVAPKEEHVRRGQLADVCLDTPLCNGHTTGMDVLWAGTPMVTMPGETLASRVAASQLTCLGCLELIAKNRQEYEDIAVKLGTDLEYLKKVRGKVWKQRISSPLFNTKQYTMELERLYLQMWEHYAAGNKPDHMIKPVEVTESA
Read-out: binding
Technique: phage display NGS
Form: peptide
Concentration: concentration not given
Relative to: input library
`HKPMLHHRWRDIDNL` — result for “enrichment fold change”: 9.21.
`SLSHHHIQEHGAYQH`: “enrichment fold change” 5.84.
For `SQYVSLLPQYQITLE`, “enrichment fold change” read 2.49.
Under “enrichment fold change”, `FSFKPVYEIVLEQK` is recorded as 1.86.
`HQHRDMRTHPSHGAI` — result for “enrichment fold change”: 9.63.

Study 2
Target: CCNB3, cyclin fold, Cln2 fusion (human)
Technique: yeast growth competition, sequencing
Matrix: yeast
Notes: strong parent motif
Relative to: not given
Direction: higher = stronger binding
Starting sequence: viral docking peptide; TSVRRALFTGGSD; partner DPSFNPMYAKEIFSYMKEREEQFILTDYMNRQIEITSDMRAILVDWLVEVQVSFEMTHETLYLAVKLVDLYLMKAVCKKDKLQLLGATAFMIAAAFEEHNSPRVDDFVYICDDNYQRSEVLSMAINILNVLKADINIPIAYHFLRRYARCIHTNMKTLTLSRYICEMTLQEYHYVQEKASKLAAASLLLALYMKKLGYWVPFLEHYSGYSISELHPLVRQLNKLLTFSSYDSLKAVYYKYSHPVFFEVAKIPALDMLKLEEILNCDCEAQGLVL
For `TLVRRALFTGGSD [S2L]`, “normalised enrichment score” read 1.46.
For `TDVRRALFTGGSD [S2D]`, “normalised enrichment score” read 1.53.
`TSVRAALFTGGSD [R5A]` — result for “normalised enrichment score”: 0.487.
For `TFVRRALFTGGSD [S2F]`, “normalised enrichment score” read 1.7.
`TSVRRALFTGFSD [G11F]` — result for “normalised enrichment score”: 1.6.
`TSVRRALFTGGWD [S12W]`: “normalised enrichment score” 1.49.
`TSVRRAPFTGGSD [L7P]` — result for “normalised enrichment score”: 0.0337.

Study 3
Target: TAR DNA-binding protein 43, full length, His tag (TARDBP, Homo sapiens, UniProt Q13148, residues 1-414)
Technique: RNA Bind-n-Seq
Form: RNA
Matrix: in vitro
Concentration: 20 nM
Notes: 6-mer, flanks averaged, single round
With: 150 mM KCl
Relative to: input library
Direction: higher = stronger binding
`GAAAGU`: “6-mer enrichment (R)” 0.85.
Under “6-mer enrichment (R)”, `CCAUGU` is recorded as 0.673.
`GAGUUU`: “6-mer enrichment (R)” 0.785.
`UAGCUC`: “6-mer enrichment (R)” 0.593.
`UGGCAG`: “6-mer enrichment (R)” 1.52.
For `AUACGG`, “6-mer enrichment (R)” read 0.965.
Under “6-mer enrichment (R)”, `GCCGCG` is recorded as 1.51.
`GGAAAU`: “6-mer enrichment (R)” 0.963.

Study 4
Change: D97Y
Target: ABI1, truncated, D143A, DHFR fusion (Arabidopsis thaliana)
Technique: DHFR PCA, deep sequencing
Matrix: yeast
Notes: methotrexate growth selection, single substitutions
Relative to: wild-type fitted maximum
Direction: higher = stronger binding
Starting sequence: PYL1, truncated, DHFR fusion (Arabidopsis thaliana); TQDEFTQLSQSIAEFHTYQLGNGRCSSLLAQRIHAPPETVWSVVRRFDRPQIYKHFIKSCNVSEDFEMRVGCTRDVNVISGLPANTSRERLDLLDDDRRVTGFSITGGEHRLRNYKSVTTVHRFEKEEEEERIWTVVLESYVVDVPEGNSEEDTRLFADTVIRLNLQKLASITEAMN; partner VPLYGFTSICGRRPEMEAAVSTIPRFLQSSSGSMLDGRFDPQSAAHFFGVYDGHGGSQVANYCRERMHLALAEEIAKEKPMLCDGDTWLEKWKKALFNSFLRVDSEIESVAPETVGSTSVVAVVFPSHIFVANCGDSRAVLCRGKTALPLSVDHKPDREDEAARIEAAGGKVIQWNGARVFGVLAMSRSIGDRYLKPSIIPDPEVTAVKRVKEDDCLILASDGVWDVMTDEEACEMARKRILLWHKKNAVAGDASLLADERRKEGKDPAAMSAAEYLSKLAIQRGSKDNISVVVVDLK
It gave 67.1% for “relative binding score” (with: (+)-ABA 17 µM).
with: (+)-ABA 0.39 µM — “relative binding score”: 15.5%.
The “relative binding score” was 9.25% (with: (+)-ABA 0.0091 µM).
with: (+)-ABA 4.8 µM — “relative binding score”: 49.1%.
For with: (+)-ABA 58 µM: “relative binding score” read 75.4%.
The “relative binding score” was 30.7% (with: (+)-ABA 1.4 µM).

A few entries again (study 4):
It gave 67.1% for “relative binding score” (with: (+)-ABA 17 µM).
The “relative binding score” was 9.25% (with: (+)-ABA 0.0091 µM).
with: (+)-ABA 4.8 µM — “relative binding score”: 49.1%.
The “relative binding score” was 30.7% (with: (+)-ABA 1.4 µM).
